Measurements collected from several papers.
Compare with care: the assays were run in different laboratories. “And” joins repeats or separate records; there may be more than shown. Numbers after ± are the reported error.

SMILES | cell line | test | system | conditions | scale | measurement | value
COc1cnc2cccc(N3CCc4c(cc(Cn5ccnc5C)cc4-c4cn(C)nc4C(F)(F)F)C3=O)c2c1 | HEC59 | cell growth |  | 120 h |  | EC50 | > 30000 nM
Cc1cnc(Cn2nc(-c3ccc(CO)o3)c3ccccc32)s1 | RBE | cell viability, CellTiter-Glo |  |  |  | IC50 | 1030 nM
C[C@H]1[C@@H](O)O[C@@H]2O[C@@]3(C)CC[C@H]4[C@H](C)CC[C@@H]1[C@@]24OO3 | THP-1 | annexin V/PI flow cytometry, measured: annexin V-/PI- |  | 1.6 µM, 24 h |  | viable cells | 95.6%
COc1ccc(-n2nc(C(C)=O)s/c2=N\N=C(/C)c2ccc(NC(=O)c3ccc(C)cc3)cc2)cc1 | HepG2 |  |  | 5 µM |  | toxicity | 95.8%
COc1nc(NCc2cn(-c3ccc(C(=O)Nc4ccc(C(F)(F)F)cc4)cc3)nn2)nc(OC)n1 | HCT-116 | annexin V-FITC/PI |  | IC50, 24 h |  | apoptotic cells Total | 33.2%
Clc1nc(NCc2ccco2)c2[nH]cnc2n1 | iPSC-derived cardiomyocytes | RNA-seq, measured: chr12 exon ending 53053574 |  | unit not given | relative to: DMSO minus compound | ΔPSI | 0.272
NC(=O)NOCCCCCCCCCCCC[P+](c1ccccc1)(c1ccccc1)c1ccccc1.O=C([O-])C(F)(F)F | HCT-116 | cell growth, live-cell imaging |  | 3 µM, control at 90% confluence |  | cell confluence | 8.66 ± 1.48%
O=c1[nH]nc(OCCCc2ccc(Cl)cc2)c(NCc2cccnc2)c1Br | HEK-293T | RNA-seq GSEA, measured: HALLMARK_NOTCH_SIGNALING |  | concentration not given | direction not given | normalized enrichment score | -1.28
CCn1cc(-c2cc(Cn3ccnc3)cc3c2CCN([C@H](c2cc(OC)ccn2)C2CC2)C3=O)c(C(F)(F)F)n1 | HEC-1-A | cell growth, inhibitor |  | 120 h |  | EC50 | > 30000 nM
O=C(/C=C/C=C/C=C/C1CCCCC1)NC1=C[C@@](O)(/C=C/C=C/C=C/C(=O)NC2=C(O)CCC2=O)[C@@H]2O[C@@H]2C1=O | Panc1005 | cell growth, CellTiter-Glo |  | 78 h |  | GI50 | 9220 nM
COc1c(Cl)cc2c([nH]c3cnccc32)c1NC(=O)c1cccnc1C | hiPSC-derived cardiomyocytes (iCell) | impedance (xCELLigence Cardio) |  | concentration not given, 2 h | relative to: control | beat rate | 102%
Cn1cc(-n2cnc3c(NCc4nc5cc(Cl)c(Cl)cc5[nH]4)nc(N4CCOCC4)nc32)cn1 | MDA-MB-231 | qRT-PCR, measured: FANCI |  | 0.05 µM, 6 h, unit not given | relative to: DMSO | mRNA level | 0.678 and 0.576 and 0.623
CC(C)NCC(O)c1ccc(O)c(O)c1 (stereo not drawn) | mouse ventricular cardiomyocytes |  |  | dose not given, 0.255 s |  | sarcomere length | 1.8 µm
Cn1cc(-c2ccc(-c3cncc(Cl)c3N3CCC4(CCNC4=O)CC3)cc2)cn1 | COLO 205 | gene expression, microarray, measured: VAV3 mRNA |  | concentration not given, 6 h | relative to: untreated cells | log2 fold change | 1.16
CCCCN1CCN(c2ccc3[nH]c(-c4ccc5[nH]c(-c6cc(OC)c(OC)c(OC)c6)nc5c4)nc3c2)CC1 | SF-295 | SRB |  | 10 µM, 48 h |  | growth percent | 58.6%
NC(=O)NOCCCCCCCCCCCCCCCC[P+](c1ccccc1)(c1ccccc1)c1ccccc1.O=C([O-])C(F)(F)F | HCT-116 | cell growth, live-cell imaging |  | 0.6 µM, control at 90% confluence |  | cell confluence | 33.7%
OCc1ccc(-c2nn(Cc3ccccn3)c3cccnc23)o1 | RBE | cell viability, CellTiter-Glo |  |  |  | IC50 | 2210 nM
COc1cc2c(Oc3ccc(NC(=O)C4(C(=O)Nc5ccc(F)cc5)CC4)cc3F)ccnc2cc1OCCCN1CCOCC1 | hiPSC-derived cardiomyocytes (iCell) | impedance (xCELLigence Cardio) |  | concentration not given, 2 h | relative to: control | beat amplitude | 106%
Cc1nn(-c2nc3c(F)cc(F)cc3s2)c(O)c1C(c1ccc(C(F)(F)F)cc1)c1c(C)nn(-c2nc3c(F)cc(F)cc3s2)c1O | RAW-ISG | western blot |  | 10 µM, added: HT-DNA | relative to: DMSO | phospho-TBK1 to TBK1 ratio | 0.459 and 0.826 and 0.633
C=Cc1c2[n-]c(c1C)/C=c1\[n-]/c(c(C)c1C=C)=C\c1[n-]c(c(CCC(=O)O)c1C)/C=c1\[n-]c(c(C)c1CCC(=O)O)=C2.[Sn+4] | SH-SY5Y | RNA-seq, measured: CMKLR1 mRNA |  | 5 µM, 5 h | relative to: untreated cells | fold change | 4.52
CC(=O)c1nn(-c2ccc(Cl)cc2)/c(=N/N=C(\C)c2ccc(NC(=O)c3ccc(C)cc3)cc2)s1 | MCF7 |  |  | 5 µM |  | viability | 5.26%
C=CC1=C(C)c2cc3[n-]c(cc4nc(cc5[n-]c(cc1n2)c(C)c5C=C)C(C)=C4CCC(=O)O)c(CCC(=O)O)c3C.[Zn+2] | SH-SY5Y | RNA-seq, measured: LDLR mRNA |  | 5 µM, 5 h | relative to: untreated cells | fold change | 1.9
Cc1sc2c(c1C)C(c1ccc(Cl)cc1)=N[C@@H](CC(=O)NCCCCCCCCNC(=O)COc1cccc3c1C(=O)N(C1CCC(=O)NC1=O)C3=O)c1nnc(C)n1-2 (stereo partly drawn) | 4T1 | wound healing |  | concentration not given, no laser irradiation |  | cell motility | 37.6% and 37.8% and 29.3%
OCc1ccc(-c2nn(Cc3ccccc3)c3ccccc23)o1 | RBE | cell viability, CellTiter-Glo |  |  |  | IC50 | 690 nM
Cc1ccc(CNC(=O)Cn2cc(CSc3nc4ccccc4[nH]3)nn2)cc1 | Caco-2 | MTT |  | 250 ppm |  | viability | 10.4%
CC(C)(N)c1cc(C(=O)N[C@@H]2CCc3ccc(Oc4ccnc5c4CCC(=O)N5)cc3C2)cc(C(F)(F)F)c1 | SK-MEL-239 | ERK phosphorylation, inhibitor, Western blot, measured: p-ERK/total ERK |  | 1 h |  | IC75 | 309 nM

SMILES | cell line | test | system | conditions | scale | measurement | value
CCN(Cc1ccncc1)c1ccc(CO)c(Cl)c1 | RBE | cell viability, CellTiter-Glo |  |  |  | IC50 | 980 nM
COCCOCCOCCOc1ccc(C#Cc2cc(CN3CCN(Cc4cc(C#Cc5ccc(OCCOCCOCCOC)cc5)cc(C(=O)O)n4)CCN(Cc4cc(SC[C@H](N)C(=O)NC[C@H]5CC[C@H](C(=O)N[C@@H](Cc6ccc7ccccc7c6)C(=O)NCCCC[C@H](NC(=O)N[C@@H](CCC(=O)O)C(=O)O)C(=O)O)CC5)cc(C(=O)O)n4)CC3)nc(C(=O)O)c2)cc1 [yttrium-86 labelled] | PC-3 PiP (PSMA-positive) |  |  | concentration not given |  | cell-bound radioactivity | 9.9 ± 0.88%
Nc1ncnc2c1ncn2[C@@H]1O[C@H](CO)[C@@H](O)[C@H]1O | activated human T cells | measured: ATP |  | 30 µM | relative to: DMSO | log2 fold change | 1.1 and 1.3 and 1.2
Nc1nc(Cn2nnc(-c3ccccc3F)n2)nc(N2CCOCC2)n1 | BV-2 | measured: caspase-8 |  | 30 nM, added: high glucose | relative to: high glucose | protein level | decreased
Cc1cc(Nc2ncc(Cl)c(Nc3ccccc3S(=O)(=O)C(C)C)n2)c(OC(C)C)cc1C1CCNCC1 | CLB-GE | phosphoproteomics LC-MS/MS, measured: GAB2 phosphorylation |  | 200 nM, 60 min | relative to: untreated | log2 fold change | -3.53
CCn1cc(-c2cc(Cn3ccoc3=N)cc3c2CCN([C@@H](C)c2cc(OC)ccn2)C3=O)c(C(F)(F)F)n1 | SU-DHL-4 | cell growth, inhibitor |  | 120 h |  | EC50 | 3100 nM
Cc1nn(-c2ccccc2Cl)c(C)c1C(=O)Nc1ccc2ccccc2n1 | Wnt-HEK293 | Wnt/β-catenin signalling, inhibitor, luciferase reporter |  | 1 µM |  | inhibition | > 70%
OCc1ccc(-c2nn(Cc3cccc(Cl)c3)c3ccccc23)o1 | RBE | cell viability, CellTiter-Glo |  |  |  | IC50 | 1410 nM
C[C@H](Nc1ccc2c(c1)OCCn1cc(N3C(=O)OC[C@H]3C(F)F)nc1-2)C(N)=O | MFE-280 | cell growth, CellTiter-Glo |  | 120 h |  | Hill coefficient GR curve | 0.736
COc1nc(NCc2cn(-c3ccc(C(=O)Nc4ccccc4)cc3)nn2)nc(OC)n1 | HCT-116 | annexin V-FITC/PI |  | IC50, 24 h |  | apoptotic cells Late | 11.7%
Cc1[nH]nc2ccc(-c3cncc(OC[C@@H](N)Cc4ccccc4)c3)cc12 | hiPSC-derived cardiomyocytes (iCell) | impedance (xCELLigence Cardio) |  | concentration not given, 2 h | relative to: control | beat amplitude | 144%
Nc1cccc2c1C(=O)N(C1CCC(=O)NC1=O)C2=O (stereo not drawn) | RPMI-8226 | flow cytometry, measured: CD150 |  | concentration not given | relative to: comparator compound alone | surface marker level | 156%
Nc1ccn([C@@H]2O[C@H](CO)[C@@H](O)C2(F)F)c(=O)n1 | CFPAC | cell viability, MTT |  | mutant KRAS liver metastasis |  | IC50 | 97 nM
CCn1c2ccc(CNC)cc2c2ccc(-c3cc(C)cs3)cc21 | NCI-H1299 expressing p53 Y220C | RT-qPCR |  | 3 µM, 24 h | relative to: DMSO | E2F1 mRNA level | no effect
c1ccc2[nH]ccc2c1 | HCT-8 | RNA-seq, measured: SLC16A14 |  | concentration not given |  | mRNA level, LS mean | 45.7 counts per million
COc1ccc(COc2ccc(Cc3cnc(N)nc3N)cc2OC)cc1 | hiPSC-derived cardiomyocytes (iCell) | impedance (xCELLigence Cardio) |  | concentration not given, 2 h | relative to: control | beat amplitude | 99%
CCN(Cc1c(F)cccc1OC)c1ccc(CO)c(Cl)c1 | RBE | cell viability, CellTiter-Glo |  |  |  | IC50 | 150 nM
CCCCc1oc2ccc(NS(C)(=O)=O)cc2c1C(=O)c1ccc(OCCCN(CCCC)CCCC)cc1 | human embryonic stem cell aggregates | mRNA level, microarray, measured: PDGFRA |  | 0.5 µM, 120 h | relative to: untreated, down-regulated | fold change | 4.9 fold
Cc1cnc(NC2CCOCC2)nc1-n1cnc(C(=O)NC(CN)c2cc(F)cc(Cl)c2)c1 (stereo not drawn) | Rec1 | flow cytometry |  | 1 µM, 48 h |  | G1 phase cells | 48.2%
NC(=O)NOCCCCCCCCCCCCCC[P+](c1ccccc1)(c1ccccc1)c1ccccc1.O=C([O-])C(F)(F)F | HCT-116 | cell growth, live-cell imaging |  | 5 µM, control at 90% confluence |  | cell confluence | 2.18%
CC/C(=N\NC(=O)NCc1cccc(O)c1)c1ccc(O)c(C)c1O | SK-OV-3 | Western blot, measured: YAP |  | 10 µM, 6 h, 3D gellan gum culture, unit not given | relative to: β-actin | protein level | 0.86 ± 0.16
NC(=O)NOCCCCCCCCCCCCCCCCCCCC[P+](c1ccccc1)(c1ccccc1)c1ccccc1.O=C([O-])C(F)(F)F | HCT-116 | cell growth, live-cell imaging |  | 0.25 µM, control at 90% confluence |  | cell confluence | 34 ± 2.7%
Cn1cc(Nc2nccc(-c3ccc4c(c3)CN(C3COC3)CC[C@H]4NC(=O)c3cn(C(C)(C)C)nn3)n2)cn1 | mouse splenic B cells | measured: Neuroinflammation signalling pathway |  | 30 mg/kg, IgD-activated in vivo | relative to: vehicle, direction not given | pathway activation z-score | 3.78
Cc1cccc(-c2[nH]c(CNc3ccccc3F)nc2-c2ccc3ncnn3c2)n1 | CD8+ T cells from myeloma patient | ELISA | human | 0.5 µM, 192 h |  | IFN-gamma production | 1.11% and 1.05% and 1.32% and 1.1% and 1% and 1.19%
NC(=O)NOCCCCCCCCCC[P+](c1ccccc1)(c1ccccc1)c1ccccc1.O=C([O-])C(F)(F)F | HCT-116 | cell growth, live-cell imaging |  | 1 µM, control at 90% confluence |  | cell confluence | 83.9%
